Measurements collected from several papers.
Protocols differ between the studies behind these lines. Numbers after ± are the reported error.
rep main protease: Replicase polyprotein 1ab, main protease (rep, Severe acute respiratory syndrome coronavirus 2, UniProt P0DTD1)
Spike glycoprotein: Spike glycoprotein (Severe acute respiratory syndrome coronavirus 2, UniProt P0DTC2)
CHRNA1/CHRNG/CHRND: CHRNA1/CHRNG/CHRND (Homo sapiens, UniProt P02708+P07510+Q07001)
Chain of UniProt Q07001 (whole entry, looked up): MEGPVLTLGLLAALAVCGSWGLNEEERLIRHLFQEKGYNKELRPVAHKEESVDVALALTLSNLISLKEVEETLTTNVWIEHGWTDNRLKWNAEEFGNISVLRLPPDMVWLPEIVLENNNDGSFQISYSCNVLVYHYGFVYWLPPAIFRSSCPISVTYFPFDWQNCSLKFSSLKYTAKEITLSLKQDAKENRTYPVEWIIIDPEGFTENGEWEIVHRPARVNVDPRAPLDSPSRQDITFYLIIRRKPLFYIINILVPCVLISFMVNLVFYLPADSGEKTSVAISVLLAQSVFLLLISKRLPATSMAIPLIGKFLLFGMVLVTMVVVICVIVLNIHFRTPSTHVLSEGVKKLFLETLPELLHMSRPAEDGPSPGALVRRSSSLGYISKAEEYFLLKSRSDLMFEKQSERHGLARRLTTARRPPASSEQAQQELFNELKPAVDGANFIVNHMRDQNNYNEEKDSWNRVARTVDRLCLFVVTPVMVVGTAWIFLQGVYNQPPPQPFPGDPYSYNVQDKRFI
Chain of UniProt P07510 (whole entry, looked up): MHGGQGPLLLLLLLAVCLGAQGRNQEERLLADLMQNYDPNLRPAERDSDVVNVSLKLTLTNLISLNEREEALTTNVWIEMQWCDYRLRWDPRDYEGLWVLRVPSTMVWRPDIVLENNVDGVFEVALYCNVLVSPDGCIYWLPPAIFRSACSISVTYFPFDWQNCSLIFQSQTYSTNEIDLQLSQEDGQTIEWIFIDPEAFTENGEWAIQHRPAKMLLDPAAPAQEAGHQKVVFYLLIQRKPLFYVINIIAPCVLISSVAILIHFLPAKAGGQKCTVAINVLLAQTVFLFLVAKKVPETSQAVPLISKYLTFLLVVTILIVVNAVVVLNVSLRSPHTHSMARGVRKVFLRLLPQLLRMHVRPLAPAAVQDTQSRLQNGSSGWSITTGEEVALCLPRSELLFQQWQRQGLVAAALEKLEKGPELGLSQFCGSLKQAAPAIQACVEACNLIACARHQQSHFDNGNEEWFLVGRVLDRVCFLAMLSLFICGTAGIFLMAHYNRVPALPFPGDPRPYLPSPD
Chain of UniProt P02708 (whole entry, looked up): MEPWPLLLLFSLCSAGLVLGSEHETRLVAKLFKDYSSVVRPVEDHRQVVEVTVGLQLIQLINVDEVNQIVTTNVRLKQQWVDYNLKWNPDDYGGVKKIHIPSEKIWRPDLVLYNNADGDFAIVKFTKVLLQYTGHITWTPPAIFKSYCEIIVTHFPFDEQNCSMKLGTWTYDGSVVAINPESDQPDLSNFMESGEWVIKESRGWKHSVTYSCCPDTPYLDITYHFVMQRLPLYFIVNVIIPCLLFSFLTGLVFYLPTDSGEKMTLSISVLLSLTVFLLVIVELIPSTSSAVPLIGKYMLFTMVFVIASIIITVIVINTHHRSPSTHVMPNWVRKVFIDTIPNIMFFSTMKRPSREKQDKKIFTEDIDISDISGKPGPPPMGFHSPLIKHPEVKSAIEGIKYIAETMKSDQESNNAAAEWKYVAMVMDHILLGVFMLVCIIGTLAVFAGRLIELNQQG
plsY3: Glycerol-3-phosphate acyltransferase 3 (plsY3, Bacillus anthracis, UniProt Q81Y92)
Chain of UniProt Q81Y92 (whole entry, looked up): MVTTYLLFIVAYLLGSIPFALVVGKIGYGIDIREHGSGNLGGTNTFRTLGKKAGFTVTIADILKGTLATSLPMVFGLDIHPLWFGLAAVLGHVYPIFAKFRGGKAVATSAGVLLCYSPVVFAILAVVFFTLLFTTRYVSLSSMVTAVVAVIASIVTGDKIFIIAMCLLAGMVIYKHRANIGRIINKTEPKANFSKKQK
RBD, SARS-CoV-2, spike, with ACE2: Angiotensin-converting enzyme 2, with SARS-CoV-2 spike RBD (ACE2, Homo sapiens, UniProt Q9BYF1)
Chain of UniProt Q9BYF1 (whole entry, looked up): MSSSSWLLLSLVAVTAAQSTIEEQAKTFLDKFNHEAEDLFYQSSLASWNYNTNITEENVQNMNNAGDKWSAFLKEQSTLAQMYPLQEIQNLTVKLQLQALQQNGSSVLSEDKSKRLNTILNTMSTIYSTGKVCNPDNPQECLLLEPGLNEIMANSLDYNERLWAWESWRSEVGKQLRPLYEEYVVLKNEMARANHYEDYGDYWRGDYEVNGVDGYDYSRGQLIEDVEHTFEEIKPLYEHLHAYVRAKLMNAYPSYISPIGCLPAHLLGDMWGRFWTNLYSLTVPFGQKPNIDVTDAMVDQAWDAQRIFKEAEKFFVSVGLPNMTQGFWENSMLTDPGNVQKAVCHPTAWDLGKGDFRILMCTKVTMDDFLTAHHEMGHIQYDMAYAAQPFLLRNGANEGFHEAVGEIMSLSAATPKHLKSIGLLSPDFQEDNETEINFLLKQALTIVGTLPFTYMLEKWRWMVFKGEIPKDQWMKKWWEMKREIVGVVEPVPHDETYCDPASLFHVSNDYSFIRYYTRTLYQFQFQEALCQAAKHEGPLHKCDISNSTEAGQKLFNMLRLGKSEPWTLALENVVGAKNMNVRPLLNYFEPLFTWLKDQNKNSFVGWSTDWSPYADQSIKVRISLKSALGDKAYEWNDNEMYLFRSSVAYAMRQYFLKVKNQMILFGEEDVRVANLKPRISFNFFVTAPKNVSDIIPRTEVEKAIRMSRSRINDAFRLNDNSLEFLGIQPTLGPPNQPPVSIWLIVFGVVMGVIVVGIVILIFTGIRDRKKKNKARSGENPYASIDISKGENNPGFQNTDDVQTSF
Chain of UniProt Q5XXP4 (whole entry, looked up): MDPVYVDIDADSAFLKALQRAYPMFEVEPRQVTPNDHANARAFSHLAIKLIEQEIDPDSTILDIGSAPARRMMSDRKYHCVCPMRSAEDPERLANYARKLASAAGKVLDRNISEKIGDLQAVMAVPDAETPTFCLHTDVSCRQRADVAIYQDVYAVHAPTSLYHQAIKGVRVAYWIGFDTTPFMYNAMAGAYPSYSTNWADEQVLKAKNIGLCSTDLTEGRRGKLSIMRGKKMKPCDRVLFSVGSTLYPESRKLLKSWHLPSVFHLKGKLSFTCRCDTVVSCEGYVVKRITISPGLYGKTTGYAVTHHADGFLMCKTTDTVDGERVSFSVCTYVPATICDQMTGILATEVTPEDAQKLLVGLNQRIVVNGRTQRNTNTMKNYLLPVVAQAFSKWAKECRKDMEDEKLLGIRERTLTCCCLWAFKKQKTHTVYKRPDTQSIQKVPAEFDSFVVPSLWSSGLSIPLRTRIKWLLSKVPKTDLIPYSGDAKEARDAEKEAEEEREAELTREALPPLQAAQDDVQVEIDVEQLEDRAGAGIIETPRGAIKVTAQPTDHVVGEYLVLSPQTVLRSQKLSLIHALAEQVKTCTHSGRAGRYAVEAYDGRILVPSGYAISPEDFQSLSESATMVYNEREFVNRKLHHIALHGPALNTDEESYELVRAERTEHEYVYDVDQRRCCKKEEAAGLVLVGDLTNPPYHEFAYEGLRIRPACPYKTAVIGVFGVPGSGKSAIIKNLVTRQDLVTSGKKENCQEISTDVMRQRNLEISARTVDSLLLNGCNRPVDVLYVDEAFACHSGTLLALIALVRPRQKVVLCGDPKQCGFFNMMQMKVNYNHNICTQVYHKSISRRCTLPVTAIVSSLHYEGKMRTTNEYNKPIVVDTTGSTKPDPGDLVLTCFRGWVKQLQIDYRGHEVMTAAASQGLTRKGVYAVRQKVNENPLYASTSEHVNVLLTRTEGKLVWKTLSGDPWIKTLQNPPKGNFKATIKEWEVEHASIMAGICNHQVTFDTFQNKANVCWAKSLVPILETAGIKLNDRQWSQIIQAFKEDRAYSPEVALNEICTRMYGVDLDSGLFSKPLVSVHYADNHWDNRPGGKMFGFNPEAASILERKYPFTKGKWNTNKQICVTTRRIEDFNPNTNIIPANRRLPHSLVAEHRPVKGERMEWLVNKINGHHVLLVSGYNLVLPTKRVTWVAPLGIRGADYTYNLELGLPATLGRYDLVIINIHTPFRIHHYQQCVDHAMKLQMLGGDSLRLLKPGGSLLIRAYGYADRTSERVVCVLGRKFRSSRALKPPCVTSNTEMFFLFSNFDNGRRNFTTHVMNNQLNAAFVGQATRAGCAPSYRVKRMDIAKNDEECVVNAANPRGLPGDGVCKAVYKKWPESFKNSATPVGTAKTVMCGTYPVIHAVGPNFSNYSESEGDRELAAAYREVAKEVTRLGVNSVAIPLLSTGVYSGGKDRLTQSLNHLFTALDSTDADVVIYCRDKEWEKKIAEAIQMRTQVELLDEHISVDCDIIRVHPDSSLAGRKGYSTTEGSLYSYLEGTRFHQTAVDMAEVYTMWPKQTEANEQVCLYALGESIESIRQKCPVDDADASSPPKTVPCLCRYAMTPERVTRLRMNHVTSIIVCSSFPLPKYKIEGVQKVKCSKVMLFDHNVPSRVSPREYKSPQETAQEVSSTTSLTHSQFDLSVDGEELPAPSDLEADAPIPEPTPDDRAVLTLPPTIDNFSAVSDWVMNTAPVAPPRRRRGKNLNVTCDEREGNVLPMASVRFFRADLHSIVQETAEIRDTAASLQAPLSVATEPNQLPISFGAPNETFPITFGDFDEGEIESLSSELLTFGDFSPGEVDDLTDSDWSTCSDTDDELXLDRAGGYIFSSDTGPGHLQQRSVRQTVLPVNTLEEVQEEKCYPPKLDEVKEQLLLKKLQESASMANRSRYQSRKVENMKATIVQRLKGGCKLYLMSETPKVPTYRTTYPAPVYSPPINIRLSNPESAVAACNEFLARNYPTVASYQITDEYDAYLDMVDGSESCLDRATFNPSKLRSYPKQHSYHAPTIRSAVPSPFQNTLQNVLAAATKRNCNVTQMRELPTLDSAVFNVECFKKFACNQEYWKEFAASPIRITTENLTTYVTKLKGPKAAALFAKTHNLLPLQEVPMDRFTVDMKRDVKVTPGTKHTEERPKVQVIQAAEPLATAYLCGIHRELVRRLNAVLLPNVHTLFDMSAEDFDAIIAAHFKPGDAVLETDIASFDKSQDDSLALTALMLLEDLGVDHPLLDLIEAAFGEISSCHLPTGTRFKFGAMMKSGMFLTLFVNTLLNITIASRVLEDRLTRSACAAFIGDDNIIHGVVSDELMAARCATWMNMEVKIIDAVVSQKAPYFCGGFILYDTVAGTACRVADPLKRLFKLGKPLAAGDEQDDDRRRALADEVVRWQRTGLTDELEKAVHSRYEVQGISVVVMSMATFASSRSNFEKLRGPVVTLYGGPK

`Cc1cncc(CC(=O)N2CCC[C@@H]([C@@H]3CCN(C(=O)c4cnn5cccnc45)C3)C2)c1` has an inhibition of 11.1% (rep main protease; enzyme activity, inhibitor; 5 µM, run 2).
With `CC(C)=CCC/C(C)=C/CC/C(C)=C/CC/C(C)=C/CC1=C(C)C(=O)c2ccccc2C1=O` the Kd was 87.4 µM (Spike glycoprotein; binding, biolayer interferometry).
`O=C(/C=C/c1ccccc1)c1ccc(O)cc1` has an inhibition of 0.326% (rep main protease; reporter gene (mKate2), inhibitor; 20 µM).
For `Cc1nn(C)c2ncc(C(=O)N3CC4(CCOCC4)C[C@H]3CNC(=O)c3cccnc3)cc12`, the inhibition was 13.1% (rep main protease; enzyme activity, inhibitor; 5 µM, run 2).
`Cc1cnc(C(=O)N[C@H]2CCCCC/C=C\[C@@H]3C[C@@]3(C(=O)NS(=O)(=O)C3CC3)NC(=O)[C@@H]3C[C@@H](Oc4nc5ccccc5c5ccccc45)CN3C2=O)cn1` gave an inhibition of 0.984% (rep main protease; reporter gene (mKate2), inhibitor; 20 µM).
`CC(C)CC(=O)OC[C@H]1O[C@@](C#N)(c2ccc3c(N)ncnn23)[C@H](O)[C@@H]1O` has an inhibition of -7% (CHRNA1/CHRNG/CHRND; 20 µM).
For `CC[C@H](C)[C@H](NC(=O)OCc1ccccc1)C(=O)N[C@@H](CCC(=O)OC)C(=O)N[C@H](C(=O)N[C@@H](CC(=O)OC)C(=O)CF)[C@@H](C)O`, the inhibition was 0.194% (rep main protease; reporter gene (mKate2), inhibitor; 20 µM).
The inhibition of `CCCCCCCCCCCCCCCC(=O)NS(=O)(=O)Oc1ccc(OC)cc1` is reported as 100% (plsY3; inhibitor; 200 µM).
`CC[C@H](C)[C@H](NC(=O)[C@H](CC(C)C)NC(=O)[C@H](Cc1c[nH]c2ccccc12)NC(=O)[C@H](CCC(N)=O)NC(=O)[C@@H](NC(=O)[C@H](Cc1ccccc1)NC(=O)[C@H](C)NC(=O)[C@H](CCCCNC(=O)COCCOCCNC(=O)COCCOCCNC(=O)CC[C@H](NC(=O)CCCCCCCCCCCCCCCCCCC(=O)O)C(=O)O)NC(=O)[C@H](CCC(N)=O)NC(=O)[C@H](C)NC(=O)[C@@H](NC(=O)[C@H](CCCCN)NC(=O)[C@H](CC(=O)O)NC(=O)[C@H](CC(C)C)NC(=O)C(C)(C)NC(=O)[C@@H](NC(=O)[C@H](CO)NC(=O)[C@H](Cc1ccc(O)cc1)NC(=O)[C@H](CC(=O)O)NC(=O)[C@H](CO)NC(=O)[C@@H](NC(=O)[C@H](Cc1ccccc1)NC(=O)[C@@H](NC(=O)CNC(=O)[C@H](CCC(=O)O)NC(=O)C(C)(C)NC(=O)[C@@H](N)Cc1ccc(O)cc1)[C@@H](C)O)[C@@H](C)O)[C@@H](C)CC)[C@@H](C)CC)C(C)C)C(=O)N[C@@H](C)C(=O)NCC(=O)NCC(=O)N1CCC[C@H]1C(=O)N[C@@H](CO)C(=O)N[C@@H](CO)C(=O)NCC(=O)N[C@@H](C)C(=O)N1CCC[C@H]1C(=O)N1CCC[C@H]1C(=O)N1CCC[C@H]1C(=O)N[C@@H](CO)C(N)=O`: “subjects ADA-positive at baseline” 0% (item: anti-drug antibodies; healthy human subjects; 5/5/8/10 mg escalating, baseline, evaluable subjects).
`O=C(N[C@@H]1Cc2ccccc2[C@H]1NC(=O)c1cc(O)ccc1[N+](=O)[O-])c1ccc2[nH]nnc2n1` has an inhibition of 6.3% (rep main protease; enzyme activity, inhibitor; 5 µM, run 2).
`Nc1ncnc2c([C@@H]3N[C@H](CO)[C@@H](O)[C@H]3O)c[nH]c12` gave an inhibition of 92% (Marburg virus; viral replication; HeLa, Musoke; 25 µM).
`CNC(=O)[C@@H](NC(=O)[C@H](CC(C)C)[C@H](O)C(=O)NO)C(C)(C)C` gave a viability difference of -14.6% (C2C12; cell viability; 100 µM, with: snake venom; baseline: venom alone).
With `COC(=O)[C@]1(C)CC[C@]2(C(=O)O[C@@H]3O[C@H](CO)[C@@H](O)[C@H](O)[C@H]3O)CC[C@]3(C)C(=CC[C@@H]4[C@@]5(C)C[C@H](O)[C@H](O[C@@H]6OC[C@@H](O[C@@H]7O[C@H](CO)[C@@H](O)[C@H](O)[C@H]7O)[C@H](O)[C@H]6O)[C@@](C)(CO)C5CC[C@]43C)[C@H]2C1` (stereo partly drawn) the Kd was 31.4 µM (Spike glycoprotein; binding, biolayer interferometry).
The efficacy of `COc1ccc(CCNC(=O)c2cc(Nc3ccccc3)nc3ccccc23)cc1OC` is reported as 0% (SARS-CoV-2; cytopathic effect; USA_WA1/2020; retest, 8-point, duplicates).
For `CN(C(=O)n1cnc(-c2ccc[n+]([O-])c2)c1)C1CCCCC1`, the inhibition was -4% (strychnine-sensitive glycine receptor, rat; binding; 10 µM, with: [3H]strychnine).
The inhibition of `CCCCCCCCCCCCCCCC(=O)CP(=O)(O)O` is reported as 67% (plsY3; inhibitor; 200 µM).
`O=C1N=C(N2CCCCN2)S/C1=C\c1ccc(F)cc1O` has an inhibition of 14% (rat sodium channel site 2; radioligand binding; rat cerebral cortex; 10 µM, with: [3H]batrachotoxinin).
`Cn1cc(C(=O)N2Cc3ccccc3C[C@H]2CNC(=O)c2cccc3[nH]ncc23)nn1` gave an inhibition of 11.9% (rep main protease; enzyme activity, inhibitor; 5 µM, run 1).
`CN[C@@]1(c2ccccc2Cl)CCCCC1=O` has an inhibition of 24% (muscarinic acetylcholine receptor; radioligand binding, antagonist, radioligand displacement; 30 µM).
For `O=C(Nc1cnccc1Cl)N1CCN(Cc2ccc3c(c2)OC(F)(F)O3)CC1`, the inhibition was 38% (strychnine-sensitive glycine receptor, rat; binding; 50 µM, with: [3H]strychnine).
For `CCCCCCCCCCCC(=O)C(F)(F)P(=O)(O)O`, the inhibition was 100% (plsY3; inhibitor; 200 µM).
`O=C(NC[C@H](NC(=O)c1cncc2ccccc12)c1ccc2ccccc2c1)C1=COCC1` gave an inhibition of 14.1% (rep main protease; enzyme activity, inhibitor; 5 µM, run 2).
The inhibition of `Oc1ccccc1-c1noc(-c2ccccc2O)n1` is reported as -50.6 ± 14.9% (Spike glycoprotein, receptor-binding domain (Severe acute respiratory syndrome coronavirus 2, UniProt P0DTC2); spike RBD binding to ACE2, inhibitor, ELISA; 10 µM).
With `CC(=O)NCCc1c(C(O)c2ccc(Cl)cc2)[nH]c2ccccc12` (stereo not drawn) the inhibition was 20 to 30% (RBD, SARS-CoV-2, spike, with ACE2; RBD binding, TR-FRET; 100 µM, with: RBD-d2 5 nM).
For `O=C(NC[C@@H]1Cc2ccccc2CN1C(=O)[C@@H]1CCCS(=O)(=O)C1)c1cn[nH]c(=O)c1`, the inhibition was 10.8% (rep main protease; enzyme activity, inhibitor; 5 µM, run 2).
The inhibition of `Cc1ccc(NC(=O)CCl)cc1N1CCOC1=O` is reported as 101% (Polyprotein P1234, nsP2 protease domain (Chikungunya virus, UniProt Q5XXP4); protease activity, FRET; 20 µM).
For `CCN(CC)CCCNC(=O)CSc1c2c(nc3cc(Cl)ccc13)CCCC2`, the maximum response was 84% (SARS-CoV-2; cytopathic effect; USA_WA1/2020; round 2, 5-point).
For `C=CCCCCCCCCC(=O)C(F)(F)P(=O)(O)O`, the inhibition was 29% (plsY3; inhibitor; 200 µM).
For `C=CCc1cc(OC)c2c(c1)OCO2`, the inhibition was -0.374% (rep main protease; reporter gene (mKate2), inhibitor; 20 µM).
With `CC(C)N1CCC[C@H]1CNC(=O)c1cn(C2CCCC2)c(=O)c2c1c1ccccc1n2C` the inhibition was 1% (CHRNA1/CHRNG/CHRND; radioligand binding; 10 µM).
With `CC[C@H](C)[C@H](N)C(=O)N1CCC[C@H]1C(=O)N[C@H](C(=O)O)[C@@H](C)CC` the inhibition was -0.522% (rep main protease; reporter gene (mKate2), inhibitor; 20 µM).
The inhibition of `COc1ccc2[nH]c(C(O)c3ccccc3)c(CCNC(C)=O)c2c1` (stereo not drawn) is reported as 20 to 30% (RBD, SARS-CoV-2, spike, with ACE2; RBD binding, TR-FRET; 100 µM, with: RBD-d2 5 nM).
For `CCCC(=O)CP(=O)(O)O`, the inhibition was 0% (plsY3; inhibitor; 200 µM).
With `O=C(Nc1cccnn1)N1CCC(=Cc2cccc(Oc3ccc(C(F)(F)F)cn3)c2)CC1` the inhibition was 12% (strychnine-sensitive glycine receptor, rat; binding; 10 µM, with: [3H]strychnine).
The inhibition of `COc1ccc(C(O)c2[nH]c3ccc(OC)cc3c2CCNC(C)=O)cc1` (stereo not drawn) is reported as 20 to 30% (RBD, SARS-CoV-2, spike, with ACE2; RBD binding, TR-FRET; 100 µM, with: RBD-d2 5 nM).
The inhibition of `CCCCCCCC(=O)CP(=O)(O)O` is reported as 0% (plsY3; inhibitor; 200 µM).
The inhibition of `CCOC(=O)[C@@H](Cc1ccc(O)c(O)c1)OC(=O)/C=C/c1ccc(O)c(O)c1` is reported as 0.0679% (rep main protease; reporter gene (mKate2), inhibitor; 20 µM).
Under “patients with adverse event”, `Cn1cnc(Cn2c(=O)[nH]/c(=N\c3cc4cn(C)nc4cc3Cl)n(Cc3cc(F)c(F)cc3F)c2=O)n1` is recorded as 0% (human, severe renal impairment; oral, 375 mg, vessel puncture site haemorrhage TEAE, Mild severity).
For `CCS(=O)(=O)c1ncc(Cl)c(C(=O)N(Cc2ccc(Cl)cc2)Cc2ccco2)n1`, the inhibition was -0.0541% (rep main protease; viral replication, Gluc reporter; SARS-CoV-2; 20 µM).
For `O=C(NC[C@@H]1Cc2ccccc2CN1c1nnnn1-c1ccccc1)c1cc[nH]c(=O)c1`, the inhibition was 11.3% (rep main protease; enzyme activity, inhibitor; 5 µM, mean of runs).
`C=C1C(=O)[C@@]23[C@H](O)C[C@@H]4C(C)(C)C(=O)CC[C@@]4(C)[C@@H]2CC[C@@H]1[C@H]3O` has an inhibition of -6.47% (rep main protease; reporter gene (Gaussia luciferase), inhibitor; 20 µM).
With `O=C1NCc2ccc(C(=O)N3CCC[C@@H]([C@H]4CCN(C(=O)c5cn[nH]c(=O)c5)C4)C3)cc2N1` the inhibition was 11.5% (rep main protease; enzyme activity, inhibitor; 5 µM, mean of runs).

Repeated from above:
`O=C1N=C(N2CCCCN2)S/C1=C\c1ccc(F)cc1O` has an inhibition of 14% (rat sodium channel site 2; radioligand binding; rat cerebral cortex; 10 µM, with: [3H]batrachotoxinin).
For `CCCC(=O)CP(=O)(O)O`, the inhibition was 0% (plsY3; inhibitor; 200 µM).
For `O=C(NC[C@@H]1Cc2ccccc2CN1c1nnnn1-c1ccccc1)c1cc[nH]c(=O)c1`, the inhibition was 11.3% (rep main protease; enzyme activity, inhibitor; 5 µM, mean of runs).
The inhibition of `CCOC(=O)[C@@H](Cc1ccc(O)c(O)c1)OC(=O)/C=C/c1ccc(O)c(O)c1` is reported as 0.0679% (rep main protease; reporter gene (mKate2), inhibitor; 20 µM).
For `CC[C@H](C)[C@H](NC(=O)OCc1ccccc1)C(=O)N[C@@H](CCC(=O)OC)C(=O)N[C@H](C(=O)N[C@@H](CC(=O)OC)C(=O)CF)[C@@H](C)O`, the inhibition was 0.194% (rep main protease; reporter gene (mKate2), inhibitor; 20 µM).
With `O=C1NCc2ccc(C(=O)N3CCC[C@@H]([C@H]4CCN(C(=O)c5cn[nH]c(=O)c5)C4)C3)cc2N1` the inhibition was 11.5% (rep main protease; enzyme activity, inhibitor; 5 µM, mean of runs).
With `CC(=O)NCCc1c(C(O)c2ccc(Cl)cc2)[nH]c2ccccc12` (stereo not drawn) the inhibition was 20 to 30% (RBD, SARS-CoV-2, spike, with ACE2; RBD binding, TR-FRET; 100 µM, with: RBD-d2 5 nM).
